Assay results from different studies.
Protocols differ between the studies behind these lines. ± gives the spread as reported.
Sequence of UniProt P09958 (whole entry, looked up): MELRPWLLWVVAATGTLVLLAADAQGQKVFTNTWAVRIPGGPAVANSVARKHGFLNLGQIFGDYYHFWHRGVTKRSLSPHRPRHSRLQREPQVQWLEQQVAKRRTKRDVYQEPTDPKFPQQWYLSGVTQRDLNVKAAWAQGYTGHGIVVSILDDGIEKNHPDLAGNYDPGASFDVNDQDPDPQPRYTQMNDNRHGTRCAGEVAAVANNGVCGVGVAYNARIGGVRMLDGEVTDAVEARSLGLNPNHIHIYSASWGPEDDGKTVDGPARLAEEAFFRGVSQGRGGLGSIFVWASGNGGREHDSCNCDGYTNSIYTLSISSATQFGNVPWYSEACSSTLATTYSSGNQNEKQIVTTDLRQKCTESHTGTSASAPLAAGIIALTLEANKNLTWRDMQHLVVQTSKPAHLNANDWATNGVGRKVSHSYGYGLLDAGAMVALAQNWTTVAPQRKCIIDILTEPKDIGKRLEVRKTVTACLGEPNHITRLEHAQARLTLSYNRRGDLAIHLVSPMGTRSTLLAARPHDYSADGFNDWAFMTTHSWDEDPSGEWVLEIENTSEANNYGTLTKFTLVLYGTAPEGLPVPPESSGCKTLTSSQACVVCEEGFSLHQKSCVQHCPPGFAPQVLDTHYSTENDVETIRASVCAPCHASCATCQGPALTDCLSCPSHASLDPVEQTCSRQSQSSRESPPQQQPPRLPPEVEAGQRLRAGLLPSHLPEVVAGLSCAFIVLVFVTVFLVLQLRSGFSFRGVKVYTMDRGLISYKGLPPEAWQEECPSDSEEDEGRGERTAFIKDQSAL
Sequence of UniProt O00748 (whole entry, looked up): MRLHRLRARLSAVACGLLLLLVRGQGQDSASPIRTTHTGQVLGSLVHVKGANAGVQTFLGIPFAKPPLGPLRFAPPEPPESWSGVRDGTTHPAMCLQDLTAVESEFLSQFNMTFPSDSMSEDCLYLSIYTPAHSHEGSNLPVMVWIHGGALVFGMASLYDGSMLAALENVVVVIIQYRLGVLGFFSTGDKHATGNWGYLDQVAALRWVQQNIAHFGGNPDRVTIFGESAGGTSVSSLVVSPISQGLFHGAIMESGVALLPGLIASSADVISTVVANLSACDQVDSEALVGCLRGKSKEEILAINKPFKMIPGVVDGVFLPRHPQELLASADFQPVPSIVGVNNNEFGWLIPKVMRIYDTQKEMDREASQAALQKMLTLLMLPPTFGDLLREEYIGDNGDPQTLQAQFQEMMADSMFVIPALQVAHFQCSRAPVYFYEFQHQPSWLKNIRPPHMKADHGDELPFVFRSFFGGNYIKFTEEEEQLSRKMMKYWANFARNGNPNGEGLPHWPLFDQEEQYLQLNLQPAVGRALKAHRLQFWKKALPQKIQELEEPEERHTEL
Sequence of UniProt Q8NKB0 (whole entry, unmodified, looked up): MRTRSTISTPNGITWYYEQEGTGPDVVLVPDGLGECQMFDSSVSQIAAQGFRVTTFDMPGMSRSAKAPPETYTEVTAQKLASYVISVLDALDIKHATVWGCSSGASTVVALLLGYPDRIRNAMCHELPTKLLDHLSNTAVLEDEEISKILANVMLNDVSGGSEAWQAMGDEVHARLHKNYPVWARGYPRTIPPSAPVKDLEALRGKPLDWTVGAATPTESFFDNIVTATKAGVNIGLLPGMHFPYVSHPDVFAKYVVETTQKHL
Sequence of UniProt Q8N695 (whole entry, looked up): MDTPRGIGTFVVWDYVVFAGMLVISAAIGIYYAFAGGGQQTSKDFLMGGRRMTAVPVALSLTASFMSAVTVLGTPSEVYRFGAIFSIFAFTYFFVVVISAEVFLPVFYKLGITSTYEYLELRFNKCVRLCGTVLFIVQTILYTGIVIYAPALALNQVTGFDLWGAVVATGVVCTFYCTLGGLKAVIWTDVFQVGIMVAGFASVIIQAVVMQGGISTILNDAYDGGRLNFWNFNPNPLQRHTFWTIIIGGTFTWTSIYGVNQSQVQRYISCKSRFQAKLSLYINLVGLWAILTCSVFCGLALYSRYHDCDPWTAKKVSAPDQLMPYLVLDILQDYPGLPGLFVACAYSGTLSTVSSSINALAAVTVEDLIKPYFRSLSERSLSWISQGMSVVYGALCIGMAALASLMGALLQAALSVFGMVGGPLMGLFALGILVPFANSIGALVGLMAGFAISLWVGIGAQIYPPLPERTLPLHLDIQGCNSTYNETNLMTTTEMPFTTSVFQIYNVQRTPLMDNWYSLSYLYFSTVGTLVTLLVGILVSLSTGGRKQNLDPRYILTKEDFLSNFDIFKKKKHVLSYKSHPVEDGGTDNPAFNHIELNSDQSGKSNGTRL

O=[N+]([O-])c1ccc(Cl)c([N+](=O)[O-])c1 — Km (GST1 (Clonorchis sinensis, UniProt A1BNE5); substrate): 2280 µM
c1ccc(CCN2CCCCC2)cc1 — Ki (L-type calcium channel benzothiazepine site, rat; binding; rat cerebral cortex; with: [3H]diltiazem 5 nM): > 10 µM
CC1Nc2nc(N)[nH]c(=O)c2NC1C (stereo not shown) — Km (Phenylalanine-4-hydroxylase (phhA, Chromobacterium violaceum, UniProt P30967); enzyme activity, cofactor; pH 7.4, 20 °C, wild-type enzyme, with: saturating phenylalanine): 152 ± 2 µM
Nc1ncnc2c1ncn2[C@@H]1O[C@H](COP(=O)(O)OP(=O)(O)OP(=O)(O)O)[C@@H](O)[C@H]1O — Km (Tyrosine--tRNA ligase 1 (tyrS1, Pseudomonas aeruginosa, UniProt Q9HWP3); substrate, ATP-PPi exchange; TyrRS-S, co-substrate 2 mM): 204 µM
CN[C@@](C)(C[18F])C(=O)O — tracer uptake (SK-OV-3 tumour model; host not given, pancreas; 15 min, tumour-bearing): 32 %ID/g
c1ccc(C2CO2)cc1 (racemic) — Km (Karenia brevis epoxide hydrolase; substrate; pH 7.0): 6570 µM
CC(C)c1ccc2c(c1)CC[C@H]1[C@](C)(CN)CCC[C@]21C — IC50 (WM-115; cell growth or viability, MTS; 48 h): 3.17 µM
C[C@H](NC(=O)Cc1cc(F)cc(F)c1)C(=O)N[C@H]1N=C(c2ccccc2)c2ccccc2N(C)C1=O — ISF Aβ42 reduction (γ-secretase; inhibitor, microdialysis; J20 hAPP transgenic mice, 24 months, hippocampal interstitial fluid; intraperitoneal, 3 mg/kg; relative to: pre-injection level): ~20%
CCCCCCCCCCCC(=O)OC1=CC(C)(C)N([O])C(C)(C)C1 — Km (Cocaine esterase (CES2, Homo sapiens, UniProt O00748)): 48.1 ± 4.29 µM
COC1=C(OC)C(=O)C(CC=C(C)C)=C(C)C1=O — Km (Type II NADH dehydrogenase (Plasmodium falciparum, UniProt Q8I302); enzyme activity, substrate; with: co-substrate 500 µM): 2.2 ± 1.2 µM
[123I]c1cncc(OC[C@@H]2CCN2)c1 — tissue/plasma ratio (SPECT; human, brain cortex; intravenous bolus, 2.1 mCi; relative to: plasma): 13.9
C/C1=C2/N[C@H]([C@H](CC(N)=O)[C@@]2(C)CCC(=O)NC[C@@H](C)OP(=O)(O)O[C@H]2[C@@H](O)[C@@H](n3cnc4cc(C)c(C)cc43)O[C@@H]2CO)[C@]2(C)N=C(/C(C)=C3N=C(/C=C4N=C1[C@@H](CCC(N)=O)C\4(C)C)[C@@H](CCC(N)=O)[C@]\3(C)CC(N)=O)[C@@H](CCC(N)=O)[C@]2(C)CC(N)=O.[Co] — Km (Corrinoid adenosyltransferase CobA (btuR, Salmonella typhimurium, UniProt P31570, F91A)): 5 ± 1 µM
CC(=O)SCCNC(=O)CCNC(=O)[C@H](O)C(C)(C)COP(=O)(O)OP(=O)(O)OC[C@H]1O[C@@H](n2cnc3c(N)ncnc32)[C@H](O)[C@@H]1OP(=O)(O)O — Km (2-isopropylmalate synthase, heterodimer with wild-type (leuA, Neisseria meningitidis serogroup B, UniProt Q9JZG1, R470Q); enzyme activity, substrate, DTP-coupled; R470Q heterodimer, one chain, with: α-ketoisovalerate 300 µM): 38 ± 4 µM
Cc1ncc2n1-c1ccc(Cl)cc1C(c1ccccc1F)=NC2 — AUC(0-inf) (healthy men, plasma; oral, 7.5 mg, day 26, arithmetic mean, with: 14 days post amenamevir): 130 ng·h/mL
CC(C)C(=O)C(=O)O — Km (2-isopropylmalate synthase, heterodimer with wild-type (leuA, Neisseria meningitidis serogroup B, UniProt Q9JZG1, R32Q); enzyme activity, substrate, DTP-coupled; R32Q heterodimer, one chain, with: acetyl-CoA 300 µM): 48 ± 6 µM
CCC1OC1CC(=O)OC(C#N)c1ccc2cc(OC)ccc2c1 (stereo not shown) — Km (Karenia brevis epoxide hydrolase; substrate; pH 7.0): 161 µM
N=C(N)NCCC[C@@H]1NC(=O)[C@H](CCCCNC(=O)[C@H](CC(=O)O)NC(=O)[C@H](CC(=O)O)NC(=O)[C@H](CC(=O)O)NC(=O)CC[C@H](NC(=O)CCOCCOCCOCCOCCNC(=O)c2ccc(NN)nc2)C(=O)N[C@@H](CC(=O)O)C(=O)N[C@@H](CC(=O)O)C(=O)N[C@@H](CC(=O)O)C(=O)NCCCC[C@@H]2NC(=O)[C@@H](Cc3ccccc3)NC(=O)[C@H](CC(=O)O)NC(=O)CNC(=O)[C@H](CCCNC(=N)N)NC2=O)NC(=O)[C@@H](Cc2ccccc2)NC(=O)[C@H](CC(=O)O)NC(=O)CNC1=O [technetium-99m labelled] — tissue uptake (γ-counting; female athymic nude mice, U-87 MG xenograft, heart; intravenous, 0.5 h): 2.36 ± 0.24 %ID/g
CC(C)(OO)c1ccccc1 — Km (gpx2 (Trypanosoma brucei, UniProt Q869A6, T78N)): 346 ± 88 µM
CC(C)=CC(=O)SCCNC(=O)CCNC(=O)[C@H](O)C(C)(C)COP(=O)(O)OP(=O)(O)OC[C@H]1O[C@@H](n2cnc3c(N)ncnc32)[C@H](O)[C@@H]1OP(=O)(O)O — Km (Rhodopseudomonas palustris LCC; substrate, coupled ATPase; pH 7.5, with: ATP 1.5 mM, KHCO3 40 mM): 1100 ± 100 µM
Cc1cn([C@H]2C[C@H](O)[C@@H](CO)O2)c(=O)[nH]c1=O — Km (Trichomonas vaginalis higher-affinity nucleoside transporter; substrate; trophozoites, Trichomonas vaginalis; higher-affinity component): ~20 µM
NC(=O)C1=CN([C@@H]2O[C@H](COP(=O)(O)OP(=O)(O)OC[C@H]3O[C@@H](n4cnc5c(N)ncnc54)[C@H](OP(=O)(O)O)[C@@H]3O)[C@@H](O)[C@H]2O)C=CC1 — Km (GMP reductase (GMPR, Leishmania major, UniProt Q4QEB3); substrate; pH 6.9, 25 °C, with: GMP 300 µM): 9 ± 2 µM
Cc1cc(=O)oc2cc(NC(=O)[C@H](CCCN=C(N)N)NC(=O)[C@@H]3CCCN3)ccc12 — Km (DPAP1 (Plasmodium falciparum, UniProt Q8IIJ9); hydrolysis, substrate, fluorogenic dipeptide, native enzyme; pH 6.0, 25 °C, with: 30 mM chloride): 84 ± 9 µM
Cc1cc(=O)oc2c(F)c(OP(=O)(O)O)c(F)cc12 — Km (Tyrosine-protein phosphatase non-receptor type 11 (PTPN11, Homo sapiens, UniProt Q06124, E76Q); phosphatase activity, substrate; 0.05 nM enzyme, pH 7.2, E76Q mutant basal no peptide): 890 ± 50 µM
C[C@H]1CNCCc2ccc(Cl)cc21 — plasma concentration (Sprague-Dawley rat, male, plasma; subcutaneous, 1 mg/kg, 15 min): 34.4 ± 3.19 ng/mL
CC(=O)N[C@@H](CCCNC(=N)N)C(=O)N[C@H](C(=O)N[C@@H](CCCNC(=N)N)C(=O)N[C@@H](CCCNC(=N)N)C(=O)N[C@@H](CSSC(C)(C)C)C(=O)N[C@@H](CCCCNC(=O)c1ccc(F)cc1)C(=O)Nc1ccc2nc(C#N)sc2c1)C(C)C — Km (Furin (FURIN, Homo sapiens, UniProt P09958); enzyme activity, substrate, HPLC): 242 µM
C[C@H]1CCCC(=O)CCC/C=C/c2cc(O)cc(O)c2C(=O)O1 — Km (zhd101 (Clonostachys rosea, UniProt Q8NKB0, D157K/E171K); substrate, HPLC; 10 min, pH 5.5, 37 °C, 1% acetonitrile): 83200 ± 5460 µM
C[C@H](N)C(=O)O — Km (BasC (Carnobacterium sp. AT7); substrate; proteoliposomes; pH 7.4, room temperature, intracellular side, with: [3H]L-serine): 1500 ± 200 µM
CP(=O)(O)CCC(N)C(=O)O (stereo not shown) — herbicidal activity (Chenopodium album; 60 g/ha, 13 days, CHEAL, post-emergence spray; relative to: untreated (0%), complete kill (100%)): 40%
O=C(O)C(Cl)(Cl)Cl — Km (SLC5A8 (Homo sapiens, UniProt Q8N695); substrate, two-electrode voltage clamp; Xenopus laevis oocytes): 134 ± 11 µM
CNC(C)Cc1ccc2c(c1)OCO2 (racemic) — subjective drug effect rating (Drug Effects Questionnaire, item: Like Drug; human; oral, 0.75 mg/kg, mean over session, unit not given; relative to: pre-dose baseline): 22.4
Oc1cc(Cl)ccc1Oc1ccc(Cl)cc1Cl — Km (laccase LacT (Brevibacillus agri); substrate; pH 3.0, 50 °C, 20% ethanol): 42.4 ± 1.99 µM

Some of these lines once more:
CC(C)C(=O)C(=O)O — Km (2-isopropylmalate synthase, heterodimer with wild-type (leuA, Neisseria meningitidis serogroup B, UniProt Q9JZG1, R32Q); enzyme activity, substrate, DTP-coupled; R32Q heterodimer, one chain, with: acetyl-CoA 300 µM): 48 ± 6 µM
CC(C)=CC(=O)SCCNC(=O)CCNC(=O)[C@H](O)C(C)(C)COP(=O)(O)OP(=O)(O)OC[C@H]1O[C@@H](n2cnc3c(N)ncnc32)[C@H](O)[C@@H]1OP(=O)(O)O — Km (Rhodopseudomonas palustris LCC; substrate, coupled ATPase; pH 7.5, with: ATP 1.5 mM, KHCO3 40 mM): 1100 ± 100 µM
CP(=O)(O)CCC(N)C(=O)O (stereo not shown) — herbicidal activity (Chenopodium album; 60 g/ha, 13 days, CHEAL, post-emergence spray; relative to: untreated (0%), complete kill (100%)): 40%
C[C@H]1CNCCc2ccc(Cl)cc21 — plasma concentration (Sprague-Dawley rat, male, plasma; subcutaneous, 1 mg/kg, 15 min): 34.4 ± 3.19 ng/mL
CC(C)(OO)c1ccccc1 — Km (gpx2 (Trypanosoma brucei, UniProt Q869A6, T78N)): 346 ± 88 µM
